Results from different studies.
A part holds a random share of what one study measured. Positions count from the first letter of the parent shown.

Study 1 — observed: binding; technique: phage display NGS; form: peptide; tested at: concentration not given; relative to: input library; quantity: enrichment fold change
Target: UDP-N-acetylglucosamine--peptide N-acetylglucosaminyltransferase 110 kDa subunit (OGT, Homo sapiens, UniProt O15294)
UniProt O15294, sequence (whole entry, looked up): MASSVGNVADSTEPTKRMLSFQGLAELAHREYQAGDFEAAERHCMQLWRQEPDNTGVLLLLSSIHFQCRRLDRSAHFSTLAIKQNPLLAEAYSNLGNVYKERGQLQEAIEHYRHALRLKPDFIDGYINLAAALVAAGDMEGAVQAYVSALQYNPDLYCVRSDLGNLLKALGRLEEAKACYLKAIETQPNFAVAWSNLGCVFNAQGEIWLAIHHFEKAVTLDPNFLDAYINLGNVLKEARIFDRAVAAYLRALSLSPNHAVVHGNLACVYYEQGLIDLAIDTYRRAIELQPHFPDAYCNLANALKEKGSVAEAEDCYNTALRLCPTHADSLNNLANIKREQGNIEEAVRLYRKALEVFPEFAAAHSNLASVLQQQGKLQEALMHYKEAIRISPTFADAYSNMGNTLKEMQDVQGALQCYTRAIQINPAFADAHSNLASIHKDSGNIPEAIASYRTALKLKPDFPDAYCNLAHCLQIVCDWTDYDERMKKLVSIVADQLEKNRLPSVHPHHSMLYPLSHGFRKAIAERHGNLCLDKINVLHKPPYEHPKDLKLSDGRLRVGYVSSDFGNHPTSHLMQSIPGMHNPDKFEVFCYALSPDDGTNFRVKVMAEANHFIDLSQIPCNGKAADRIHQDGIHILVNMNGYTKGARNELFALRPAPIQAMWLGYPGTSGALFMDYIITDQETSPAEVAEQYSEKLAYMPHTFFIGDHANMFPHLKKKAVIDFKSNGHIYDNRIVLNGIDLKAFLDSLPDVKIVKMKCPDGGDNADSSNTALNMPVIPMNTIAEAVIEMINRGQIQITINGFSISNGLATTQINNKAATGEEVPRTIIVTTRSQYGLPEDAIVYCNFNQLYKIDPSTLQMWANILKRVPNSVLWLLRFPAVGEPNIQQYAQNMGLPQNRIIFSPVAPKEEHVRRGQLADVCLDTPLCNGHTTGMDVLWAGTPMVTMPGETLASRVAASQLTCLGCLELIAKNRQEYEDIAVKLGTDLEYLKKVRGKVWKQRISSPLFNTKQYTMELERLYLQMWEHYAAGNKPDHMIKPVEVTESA
HYIPHFPWQWDFDHH: 8.06
HVRWHHSDAPYWTDI: 5.46
HLHQDHISHPFEHEA: 5.72
VFTPSYQIYIKPRQF: 6.56
YTSHYPVHVHHYPQ: 12.5

Study 2 — target: CCNA1, cyclin fold, Cln2 fusion (human); technique: yeast growth competition, sequencing; medium: yeast; setting: strong parent motif; relative to: not given; reading: higher = stronger binding; quantity: normalised enrichment score
Parent: viral docking peptide; YKVKRRLVFGADD; partner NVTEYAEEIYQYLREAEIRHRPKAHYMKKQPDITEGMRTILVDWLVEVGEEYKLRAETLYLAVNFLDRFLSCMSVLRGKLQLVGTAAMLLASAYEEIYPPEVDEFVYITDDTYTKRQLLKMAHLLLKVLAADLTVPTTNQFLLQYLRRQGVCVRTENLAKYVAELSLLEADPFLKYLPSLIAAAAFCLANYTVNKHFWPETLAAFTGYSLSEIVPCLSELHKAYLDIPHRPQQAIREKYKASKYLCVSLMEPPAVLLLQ
F9T: 0.538
K4C: 0.524
R5W: -0.332
V8F: 0.709
L7C: -0.149
K4G: 0.519
R5D: 0.134
F9G: 0.314
D13A: 0.218
A11G: 1.11
D12T: 1.24
D12G: 1.11
K2V: 1.22
F9L: 0.882
K2M: 1.5
R5E: 0.112
D12N: 1.4
D12K: 0.833
A11M: 1.37
R5G: -0.111
R5M: 0.408
G10L: 1.11
G10D: 1.67
V3D: 0.146
K4A: -0.242

Study 3 — technique: RNA Bind-n-Seq; form: RNA; medium: in vitro; tested at: 15 pmol; setting: 4-mer, random 30-nt RNA, single round; with: 3 µM DMDA-PatA, 2 mM AMP-PNP; relative to: input library; reading: higher = stronger binding; quantity: 4-mer enrichment
Target: Eukaryotic initiation factor 4A-I (EIF4A1, Homo sapiens, UniProt P60842, residues 1-406, full length assumed)
UniProt P60842, sequence (whole entry, looked up): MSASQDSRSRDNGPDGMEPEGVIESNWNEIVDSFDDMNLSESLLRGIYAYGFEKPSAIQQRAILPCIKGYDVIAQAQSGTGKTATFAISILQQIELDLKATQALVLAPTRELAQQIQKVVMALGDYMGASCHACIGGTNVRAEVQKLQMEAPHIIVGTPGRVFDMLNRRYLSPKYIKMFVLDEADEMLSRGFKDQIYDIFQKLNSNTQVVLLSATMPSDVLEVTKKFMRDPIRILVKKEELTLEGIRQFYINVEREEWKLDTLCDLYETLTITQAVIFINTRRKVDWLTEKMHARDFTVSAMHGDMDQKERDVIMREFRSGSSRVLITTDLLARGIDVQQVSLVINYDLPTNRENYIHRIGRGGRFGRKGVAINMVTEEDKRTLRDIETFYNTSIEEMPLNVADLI
UCUC: 0.64 fold
UGGA: 1.19 fold
UCCC: 0.53 fold
UAGC: 1.25 fold
ACCA: 0.277 fold
GCUC: 0.701 fold
CGAC: 0.577 fold
UAUU: 1.14 fold

Study 4 — target: vanadate, free oxyanion; technique: microfluidic competitive inhibition; medium: in vitro, cell-free expressed; tested at: not given; reading: lower = stronger binding; quantity: oxyanion analog dissociation constant
Setting: derived from inhibition constants, unchanged parent 676 nM
Parent: PafA, mature enzyme, eGFP fusion (Elizabethkingia meningoseptica, UniProt Q9KJX5); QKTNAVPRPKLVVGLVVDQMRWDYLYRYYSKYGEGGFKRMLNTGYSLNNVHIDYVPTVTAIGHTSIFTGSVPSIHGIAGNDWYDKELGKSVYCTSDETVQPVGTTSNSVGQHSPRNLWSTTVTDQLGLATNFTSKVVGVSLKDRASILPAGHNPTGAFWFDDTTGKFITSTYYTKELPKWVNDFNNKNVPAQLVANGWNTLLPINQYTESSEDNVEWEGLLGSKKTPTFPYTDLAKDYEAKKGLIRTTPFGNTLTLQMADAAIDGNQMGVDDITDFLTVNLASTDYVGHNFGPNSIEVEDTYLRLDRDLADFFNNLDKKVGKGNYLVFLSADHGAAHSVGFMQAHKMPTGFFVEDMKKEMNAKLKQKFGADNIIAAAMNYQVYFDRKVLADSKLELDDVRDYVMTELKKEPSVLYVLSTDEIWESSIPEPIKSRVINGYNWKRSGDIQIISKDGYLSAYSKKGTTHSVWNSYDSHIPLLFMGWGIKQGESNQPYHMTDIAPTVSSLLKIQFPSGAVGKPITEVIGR
P230G: 0.548 µM
N186G: 0.576 µM
I449V: 0.792 µM
N116G: 1.1 µM

Study 5 — technique: protein binding microarray; form: double-stranded DNA, one strand shown; medium: in vitro; tested at: not given; relative to: not given; reading: higher = stronger binding; quantity: E-score
Target: Histone acetyltransferase KAT6A, winged helix 2, GST fusion (KAT6A, Homo sapiens, UniProt Q92794, residues 85-181)
Setting: 8-mer, flanks averaged, mean of 2 arrays, mostly near background
Target sequence (chain): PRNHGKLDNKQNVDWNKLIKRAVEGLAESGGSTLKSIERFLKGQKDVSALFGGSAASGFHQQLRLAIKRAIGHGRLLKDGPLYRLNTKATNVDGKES
ATCTCCGG: 0.0611
CAGTCCCG: -0.00636
AAATGGAA: 0.0366
ACCGATGA: 0.063
CCGCGTCG: 0.214
CGTAGGGC: -0.0705
AACTCGTC: -0.0115
CACGTCTG: -0.0261

Repeated from above (study 2):
K4G: 0.519
R5D: 0.134
F9G: 0.314
D13A: 0.218
A11G: 1.11
D12T: 1.24
D12G: 1.11
K2V: 1.22
